Experimental data of several laboratories.
Protocols differ between the studies behind these lines. ± gives the spread as reported.

SMILES | assay | system | setting | plasma concentration
CSc1cc(C)[nH]c(=O)c1CN1CCc2c(Cl)c3c(c(C)c2C1=O)OC(C)(C1CCC(N(C)C)CC1)O3 (centres unmarked) | – | mouse, plasma | oral, 10 or 25 mg/kg once daily, 24 h post dose | not detected
Cn1cnnc1Sc1c2c(c(C#N)c3nc4ccccc4n13)CCCC2 | – | C57BL/6 mouse, plasma | intravenous, 0.3 µg/g, 5 min | 55.5 ng/mL
Cc1cc2c(c(=O)o1)C=C1CCC(C(C)CNCc3ccc(O)cc3)CC1O2 (centres unmarked) | HPLC-MS | mouse | iv, 25 mg/kg, 5 min | 14.7 µM
COc1ccc2nc(NC(=O)c3ccc(C(N)c4ccccc4)cc3)sc2c1 (centres unmarked) | – | CD-1 mouse female, plasma | intraperitoneal, 25 mg/kg, first six hours | > 0.3 µM
Cc1nc(NC(=O)N2CCC[C@H]2C(N)=O)sc1-c1csc(C(C)(C)C)n1 | – | mouse SK-OV-3 xenograft, plasma | intraperitoneal, 100 mg/kg single, 1 h | 21.1 ± 1.2 µM
[2H]C([2H])([2H])C(c1cc2nnc(-c3cc(F)ccc3F)n2nc1OCc1ncnn1C)(C([2H])([2H])[2H])C([2H])([2H])[2H] | – | CF-1 mouse, plasma | intraperitoneal, 30 to 300 mg/kg, 0.25 h, effective in 6 Hz seizure test | 100 to 1000 ng/mL
CCC1C=CC2CCN(C(=O)C3CCC4C=CC5(CCCN5C(=O)C(Cc5ccccc5Cl)NC(C)=O)C(=O)N43)C2C(=O)N1CC(=O)OC (centres unmarked) | – | female NMRI nu/nu mouse, plasma | subcutaneous osmotic pump, 200 mg/kg/day, 48 h | 1 µM
COc1cc(CNC(=O)CCCC/C=C/C(C)C)ccc1N | – | C57BL/6 mouse | oral, 0.4 mg/kg, below quantitation limit | < 1 ng/mL
CC(C)=CCC[C@](C)(O)[C@H]1CC[C@]2(C)[C@@H]1[C@H](O)C[C@@H]1[C@@]3(C)CC[C@H](O)C(C)(C)[C@@H]3CC[C@]12C | – | hairless mouse, male, plasma | topical, 25 mg/kg, 3 h | < 2 ng/mL
CCC1CC2C(C)=CC3C(=O)CCCC3C=CC(C)=CC2C(=O)O1 (centres unmarked) | – | ICR mouse male, plasma | intravenous, 2 mg/kg, 30 min | 8.4 ± 1.3 ng/mL
Cc1cc(C)c(-c2[nH]nc(C)c2C)cc1C(=O)N1CC(c2ccc(C#N)cc2)C1 | mass spectrometry | mouse, Calu-6 xenograft, plasma | oral, 60 mg/kg, 6 h after last dose | 6800 ng/mL

For quick reference, copied from above:
SMILES | assay | system | setting | plasma concentration
COc1cc(CNC(=O)CCCC/C=C/C(C)C)ccc1N | – | C57BL/6 mouse | oral, 0.4 mg/kg, below quantitation limit | < 1 ng/mL
